# Measurements of several laboratories.
# Parts stem from different laboratories: compare values within a part only.

# Block 1
# Target: RNA binding protein fox-1 homolog 2, RRM domain, GST-SBP tag (RBFOX2, Homo sapiens, UniProt O43251-10, residues 100-194)
# Technique: RNA Bind-n-Seq
# Form: RNA
# Matrix: in vitro
# Concentration: 365 nM
# Setting: natural RNA segment, single round, ends assumed
# Reference: no-protein control
# Direction: higher = stronger binding
# Construct (chain): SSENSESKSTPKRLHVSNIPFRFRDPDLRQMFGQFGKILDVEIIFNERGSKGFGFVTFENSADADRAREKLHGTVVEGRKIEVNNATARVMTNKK
Strand,RBNS enrichment (R)
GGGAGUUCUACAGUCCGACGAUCGCUCUGGAUUCACUCUUCCCUGUCGGCCGCGCAUGUGCUCAUCCCACUCUCCGCUAAGCGGGAGGCUGCUGUUAGAGCAGGCUGCUUCCUGCCUAAAGCAGGCCCUUCGGUGGAAUUCUCGGGUGCCAA,0.855
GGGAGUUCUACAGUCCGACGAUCAGGGUCCCUUUUGCAUUGCCAAGUGCCAUAACCAUGAGCACUACUCUACCAUGGUUCUGCCUCCUGGCCAAGCAGGCUGGUUUGCAAGAAUGAAAUGAAUGAUUCUACAGUGGAAUUCUCGGGUGCCAA,0.846
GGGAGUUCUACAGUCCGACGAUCACUUGUUACAGUGUCCUUUUUUUCUCAGCUUCAGGAUUAUGGACAUAGAUCUCCACACCUGGCUUGUAACUAUUUUGAGGCUGAAAGAGCUAAUGAAGGGCCCUGCCUAGUGGAAUUCUCGGGUGCCAA,0.62
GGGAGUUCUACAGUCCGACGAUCAGUAGAUGGUUGCCAUGAUUGCAUCAGAGACCUGGGCCAUGGCUACCAGCUUCUGGGGCUCACUGCAGUCUUCCCUGGGUCUUCCCUUCAAAUGCCCAUGGCGUUUAUCCUGGAAUUCUCGGGUGCCAA,0.224
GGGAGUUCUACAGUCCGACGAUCGUAAAUAGUUAUCAUUCUGGGUAACUGGUUGAAACUCUGACUUUUGGACAAGUAAUUCCUGGGGUUCUGUCUUUGGUAGCAUCACCAGGGAUAUUUGGGUGGGACAGACAUGGAAUUCUCGGGUGCCAA,0.291
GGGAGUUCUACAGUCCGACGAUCUGCAUUAUGUGUCACAUUACUGGGCAAACUGUUCAAAUAUUUUUUUUAAACCUCCCUGUAUAGAAAAUAUCAUUAAGGAUGUAAAAGCCAUGCUUGCCUAUUUGCUGUAUUGGAAUUCUCGGGUGCCAA,1.37
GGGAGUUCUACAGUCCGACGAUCUUCAGUACUGGGUGGUUCAGCAGGGAAGCCGGGUGGGACCAGUGUGUCUGUCAUGAAACCACUAACUGCAUUCCUGACUGAAGAGCCAUCUGUCAUUUAUUGGGGAAGGUUGGAAUUCUCGGGUGCCAA,0.712
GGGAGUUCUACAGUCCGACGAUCAUUUGUAGUGACUGUUCCCUUCCCUCUGUUGCAGGGAACCAGGAGGAAAGGGAAAGAUGUUGCCAUAUUUCCUACUCUUUAGGCAUGGACUCUCCUUUCCCUUUGUUAGUUGGAAUUCUCGGGUGCCAA,0.635
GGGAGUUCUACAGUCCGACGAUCGCUGAUCAGAAUUUUACCAAAAUUCAGAACAUCCUCCAAUUCCACAGUCUCUGGGAGACUUUCCCUAAGAGGCGACUUCCUCUCCAGCCUUCUCUCUCUGGUCAGGCCCAUGGAAUUCUCGGGUGCCAA,0.467

# Block 2
# Target: RING finger protein unkempt homolog, zinc fingers 1-6, GST-SBP tag (UNK, Homo sapiens, UniProt Q9C0B0, residues 30-357)
# Technique: RNA Bind-n-Seq
# Form: RNA
# Matrix: in vitro
# Concentration: not given
# Setting: RNA with constant flanks, human-mouse chimeric sites, ends assumed
# Reference: input RNA pool
# Direction: higher = stronger binding
# Target sequence (chain): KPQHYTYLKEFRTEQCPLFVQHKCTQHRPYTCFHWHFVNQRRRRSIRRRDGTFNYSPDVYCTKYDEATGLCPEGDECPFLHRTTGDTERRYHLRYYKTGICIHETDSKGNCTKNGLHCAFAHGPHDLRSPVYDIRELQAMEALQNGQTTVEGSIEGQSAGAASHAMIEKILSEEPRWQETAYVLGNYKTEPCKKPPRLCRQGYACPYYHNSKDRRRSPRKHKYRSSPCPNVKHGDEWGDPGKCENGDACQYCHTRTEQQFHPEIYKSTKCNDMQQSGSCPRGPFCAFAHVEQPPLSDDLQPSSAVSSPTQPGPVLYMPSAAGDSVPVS
Strand,bound/input enrichment [ratio]
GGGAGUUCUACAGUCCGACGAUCCUUAUGGCUGCAGAAACAGGAAGUGGCAAAACUGGUGCAUUUAGUAUUCCCGUUAUCCAGAUAGUGUAUGAAACUCUGAAAGACCAACAGGAAGGAAAGAAAGGGAAAACAACUAUUAAACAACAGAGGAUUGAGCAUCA,0.82
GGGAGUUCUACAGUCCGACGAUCCUUAUGGCUGCAGAAACAGGAAGUGGAAAAACUGGUGCAUUUAGUAUUCCAGUUAUCCAGAUAGUGUAUGAAACUCUGAAAGACCAACAGGAAGGAAAGAAAGGGAAAACAACUAUUAAACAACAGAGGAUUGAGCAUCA,0.637
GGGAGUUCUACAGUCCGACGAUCAAAGAGUGGAUAGAGUGUGCACACGGGAUCGGUGGGACUCGGGCAGAAAAGGAGUGCAAGAUAGAGUUCGAUGACUUCGAAGAGUGCUUGCUUCGGCACAAAACGAUGAGGCGAAUGCAUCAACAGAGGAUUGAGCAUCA,0.313
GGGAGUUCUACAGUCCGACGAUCAUGCAGUAUGAGACCAACAGCAUGGACUUCAAAGUUGGGGCGGAUGGGACAGUCUUCGCCACCCGGGAGCUGCAGGUCCCCUCCGAGCAGGUGGCGUUCACGGUGACUGCAUGGGACAGCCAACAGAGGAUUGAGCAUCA,0.332
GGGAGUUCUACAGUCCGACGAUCGUGUCCUGCUUUCAACUUAAAUCACUGAGGCAUCUCUACUGUUCUGUUAAAAUCAGGACUGUAGCGCUGUGUCACCACAUGAGAGUUCAGAAGCAGCCUUUCUGUGGAGAGUGAGAAUGACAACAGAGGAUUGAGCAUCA,0.087
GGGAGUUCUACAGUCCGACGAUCGGGGAGAAACCUUACGAGUGUGUGCAGUGUGGGAAAUCCUACAGUCAGAGCUCAAACCUUUUUAGACAUCAGAGACGACACAAUGCAGAAAAACUUCUGAAUGUUGUGAAGGUUUAAGAACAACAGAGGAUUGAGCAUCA,0.181
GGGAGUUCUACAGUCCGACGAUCUAAGUUAAGCUUUUAAUCUUUGUAAAUUCUUAACAUUUUUAUAUUGCCAUGUUUAUUUUGUUUGGGUAAUUUGGUUCAUACAUGGCCUAGCUAAGGUAAUGAACAUCUUUUUCAGUAAUUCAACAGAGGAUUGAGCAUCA,0.497
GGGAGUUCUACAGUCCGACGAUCACCUCCCCCUCCCGCCUCACCCCACCCCCGCUUUUUGGAAAGUUUUUGGCGUUUCUUUUUUUUAGAAAUACAAAGUGAUUACAGUUUCCCCCGCAAGGGUCUAUCGAAGGGCUUGACGGACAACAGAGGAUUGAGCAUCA,2.04

# Block 3
# Target: Interferon regulatory factor 5, full length, phosphomimetic (IRF5, Homo sapiens, UniProt Q13568-2, residues 1-514, S451D/S453D/S456D/S462D)
# Technique: protein-binding microarray
# Form: double-stranded DNA, one strand shown
# Matrix: in vitro
# Concentration: 940 nM top
# Setting: 60-bp whole probe
# Added: salmon DNA 0.4 mg/ml
# Reference: random background probes
# Direction: higher = stronger binding
# Constant ends, left off below: GCCTAGCAC … GTCTTGATTCGCTTGACGCTGCTG
Strand,fitted relative affinity
GACGGTTCCGGTTTCGGGAAGTGCTAG,5.87 z-score
TCATGCCTCATCTTGCAGACTGTGCTA,0.245 z-score
GACGATTACGGGACTGGAGACGTGCTA,-0.378 z-score
TCACCTCAGGGTTTCAGACTGTGCTAG,-0.00726 z-score
TTATTTAGGATAGAACTATAGTGCTAG,-0.41 z-score
TTAGGTATCGACACTGTGTTAGTGCTA,5.07 z-score
GACGGACTGCGACTGGGGACGTGCTAG,-0.627 z-score
GACGGACTGGACTATCGAGACGTGCTA,-0.183 z-score
GACGGTCTCGGTTTCGTGACGTGCTAG,4.74 z-score
TTAGGGCTGGGTCTCGGTTAGTGCTAG,1.3 z-score
TATTGTTTCCTCTTTCACTGGTGCTAG,2.1 z-score
GACGGTATCGGTCTCGGTACGTGCTAG,8.41 z-score
GACGATTTCAGTAACGAGACGTGCTAG,0.339 z-score
TCATCTCTCATGTTACAACTGTGCTAG,2.01 z-score
CTCTGTCCCTGTTTCTACTGGTGCTAG,1.37 z-score
TCACTTTTATTTTTTTTACTGTGCTAG,2.06 z-score
TTCAGTCCCCTCTTCTGGATGTGCTAG,0.247 z-score
ACCCATTGAGATTTTCATTATGTGCTA,0.528 z-score
AACGATCTCAGTCTCGAGACGTGCTAG,1.36 z-score

# Block 4
# Target: Histone acetyltransferase KAT6A, winged helix 1, GST fusion (KAT6A, Homo sapiens, UniProt Q92794, residues 1-85)
# Technique: protein binding microarray
# Form: double-stranded DNA, one strand shown
# Matrix: in vitro
# Concentration: not given
# Setting: 8-mer, flanks averaged, mean of 2 arrays, mostly near background
# Reference: not given
# Direction: higher = stronger binding
# Target sequence (chain): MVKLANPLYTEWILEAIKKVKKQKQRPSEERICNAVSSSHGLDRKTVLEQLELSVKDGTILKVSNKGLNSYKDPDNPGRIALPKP
Strand,E-score
AAAACTGA,-0.178
ATTGGGAG,-0.287
GGTATAAC,-0.08
ACATCTTG,-0.222
CTTATTGA,-0.26
ATCTCCCA,-0.183
AACAATGA,-0.095
ATGTGGCG,0.34
CATGTAGC,0.0517
CATCTACC,-0.125
GGTCCCGA,0.229
CTGGTATA,-0.0208
CACGAGTC,-0.138
ACTTGGTG,-0.226
GATTTGAA,-0.158
AAGACAGT,-0.0406
AGATGTTA,-0.175
AGTCTTGA,-0.0839
ACGAGGAA,-0.119

# For quick reference, copied from above (block 3):
Strand,fitted relative affinity
TCACTTTTATTTTTTTTACTGTGCTAG,2.06 z-score
GACGGTATCGGTCTCGGTACGTGCTAG,8.41 z-score
CTCTGTCCCTGTTTCTACTGGTGCTAG,1.37 z-score
